Measured values pooled from the literature.
Several values in a cell are separate wells, animals, samples, runs or records. ± marks the error that the study gave.

`N#CSCc1cc(=O)oc2cc(O)ccc12` gave a GI50 of 4 ± 0.3 µM (WiDr, multidrug-resistant; sulforhodamine B).
`CC(C)=CCNc1ncnc2c1ncn2[C@@H]1O[C@H](CO)[C@@H](O)[C@H]1O` has an AP-TGFα release of 10.8% and 12.3% and 13% (mock-transfected cells; TGFα shedding, agonist; 100 µM; relative to: unstimulated vehicle control).
Under “normalized enrichment score”, `O=c1[nH]nc(OCCCc2ccc(Cl)cc2)c(NCc2cccnc2)c1Br` is recorded as -1.74 (HEK-293T; RNA-seq GSEA, measured: HALLMARK_INTERFERON_ALPHA_RESPONSE; concentration not given; direction not given).
`CCn1cc(-c2cc(Cn3ccnc3)cc3c2CCN([C@H](c2cc(OC)ccn2)C2CC2)C3=O)c(C(F)(F)F)n1` gave an EC50 of 18.4 µM (MDA-MB-175-VII; cell growth, inhibitor; 120 h).
`Cc1cnc(NC2CCOCC2)nc1-n1cnc(C(=O)NC(CN)c2cc(F)cc(Cl)c2)c1` (stereo not drawn): “S phase cells” 7.6% (MINO; flow cytometry; 1 µM, 24 h).
With `CCCCN1C[C@H](O)[C@@H](O)[C@@H](O)[C@H]1CO` the IC50 was 6.9 µM (sample F patient fibroblasts; Gb3 level lowering, LC-MS/MS, measured: Gb3 d18:1/16:0; 216 h).
The EC50 of `CC(C)C[C@@H](C=O)NC(=O)[C@H](CC(C)C)NC(=O)[C@H](CC(C)C)NC(=O)OCc1ccccc1` is reported as 0.356 µM (BRD4-HiBiT cells; BRD4 degradation rescue, inhibitor; 8 h, added: dBET6 500 nM).
The Z score of `CCN(CC)C(=O)N1CCN(C)CC1` is reported as 1.7 (MDA-MB-231 BAX/BAK siRNA knockdown; cell viability, CellTiter-Glo; direction not given).
For `Cc1cccc(-c2[nH]c(CNc3ccccc3F)nc2-c2ccc3ncnn3c2)n1`, “surface marker level” read 182% (RPMI-8226; flow cytometry, measured: CD212; concentration not given; relative to: comparator compound alone).
`CCn1cc(-c2cc(Cn3ccoc3=N)cc3c2CCN([C@@H](C)c2cc(OC)ccn2)C3=O)c(C(F)(F)F)n1` gave an EC50 of 0.159 µM (HPAF-II; cell growth; 120 h).
For `NS(=O)(=O)OC[C@@H]1C[C@@H](n2ccc3c(N[C@H]4CCc5ccccc54)ncnc32)C[C@@H]1O`, the EC50 was 0.108 µM (BRD4-HiBiT cells; BRD4 degradation rescue, inhibitor; 4 h, 50% degradation rescued, added: dBET6 500 nM).
For `CCOC(=O)C1=C(C)NC2=C(C(=O)OC(c3ccc(OC)c(OC)c3)C2)C1c1ccc(C)cc1` (mixture of isomers), the EC50 was > 20 µM (J774.A1; cytotoxicity).
With `CN(C)CCCOc1cc(NC(=O)c2cc(Cl)cc(C(=O)Nc3cc(OCCCN(C)C)c4ccccc4n3)n2)nc2ccccc12` the selectivity ratio was 2 (HT-1080; cell viability, CellTiter-Glo; 72 h; relative to: IC50 HT-1080 over WI-38).
For `CCCN1CCN(c2ccc3[nH]c(-c4ccc5[nH]c(-c6ccc(C(F)(F)F)cc6)nc5c4)nc3c2)CC1`, the growth percent was -89% (MDA-MB-435; SRB; 10 µM, 48 h).
For `O=P(O)(O)C(O)(Cn1ccnc1)P(=O)(O)O`, the viability was 101 ± 2% (hFOB 1.19; AlamarBlue; 1.9 µM, 24 h; relative to: control).
The EC50 of `CCOC(=O)C1=C(C)NC2=C(C(=O)OC(c3ccc(OC)c(OC)c3)C2)C1c1cccc(Cl)c1` (stereo not drawn) is reported as > 20 µM (J774.A1; cytotoxicity).
`C[C@H](CCC(=O)NCCS(=O)(=O)O)[C@H]1CC[C@H]2[C@@H]3CC[C@@H]4C[C@H](O)CC[C@]4(C)[C@H]3CC[C@]12C` has a proliferation increase of 72% (human ADPKD PLD cystic cholangiocytes; cell confluence; 20 µM, 48 h; relative to: untreated).
`COC[C@H](NC(=O)c1cnc(C)s1)C(=O)N[C@@H](COC)C(=O)N[C@@H](Cc1ccccc1)C(=O)[C@@]1(C)CO1` has an EC50 of 9.46 µM (BRD4-HiBiT cells; BRD4 degradation rescue, inhibitor; 2 h, added: dBET6 500 nM).
`Cc1cc(Nc2ncc(Cl)c(Nc3ccccc3S(=O)(=O)C(C)C)n2)c(OC(C)C)cc1C1CCNCC1` — result for “log2 fold change”: -2.05 (CLB-BAR; phosphoproteomics LC-MS/MS, measured: FAM111B phosphorylation; 200 nM, 60 min; relative to: untreated).
For `C=CCn1c(=O)c2cnc(Nc3ccc(N4CCN(C)CC4)cc3)nc2n1-c1ccc2c(n1)[C@@](O)(CC)CC2`, “G2/M cells in subpopulation” read 67.8% (MDA-MB-231; flow cytometry, measured: pHH3-γH2Ax-; concentration not given).
`COc1cc(/C=C/C(=O)N2CCC=CC2=O)cc(OC)c1OC` gave a mRNA expression of 105 ± 13.2% (MDA-MB-468; qRT-PCR, measured: Nestin; 30 µM, 6 h; relative to: time zero).
Under mRNA level, `N#C/C(=C\c1c[nH]nc1-c1ccc2ccccc2c1)C(=O)O` is recorded as “decreased” (LX-2; qPCR, measured: FN1; 10 µM, hepatic stellate cell activation, added: TGFβ; relative to: untreated).
`CN(C)c1ncnc2c1ncn2[C@@H]1O[C@H](CO)[C@@H](O)[C@H]1O` has an AP-TGFα release of 12.4% and 11.7% and 9.29% (mock-transfected cells; TGFα shedding, agonist; 10 µM; relative to: unstimulated vehicle control).
With `C[C@@H](O)[C@@H](CO)NC(=O)[C@@H](CCCNC(=N)N)NC(=O)[C@@H]1CCCN1C(=O)[C@@H]1CSSC[C@H](NC(=O)[C@H](Cc2ccccc2)NC(=O)CN2CCN(CC(=O)O)CCN(CC(=O)O)CCN(CC(=O)O)CC2)C(=O)N[C@@H](Cc2ccc(O)cc2)C(=O)N[C@@H](Cc2ccccc2)C(=O)N[C@@H](CCC(N)=O)C(=O)N[C@@H](CC(N)=O)C(=O)N1` [gallium-68 labelled] the radiochemical purity was > 99% (normal saline; 0 h, room temperature).
With `O=C(C[C@@H](C(F)F)n1ccc(F)n1)N1CCC(O)(Cn2cnc3c(cnn3-c3ccc(F)cc3)c2=O)CC1` the apoptotic cells was 10.7% (CHP-212 resistant; annexin V/PI flow cytometry; 0.3 µM, 48 h).
`NCCOc1cc(NC(=O)c2cc(OCc3c[nH]nn3)cc(C(=O)Nc3cc(OCCN)c4ccccc4n3)n2)nc2ccccc12` has a selectivity ratio of 3 (HT-1080; cell viability, CellTiter-Glo; 72 h; relative to: IC50 HT-1080 over WI-38).
`O=C(Nc1nnc2n3c(Cc4ccccc4)n[nH]c3nc(-c3ccc(Cl)cc3)c1-2)c1ccccc1` gave a cell growth of 101% (MDA-MB-435; SRB; 10 µM, NCI60 single-dose screen; relative to: untreated).
`CC1CC(OC(=O)C(O)c2ccccc2)CC(C)(C)C1` (stereo not drawn) has a viability of 18.8% and 25.3% (MDA-MB-231 BAX/BAK siRNA knockdown; CellTiter-Glo; concentration not given; relative to: normalised luminescence).
`CC/C(=N\NC(=O)NCc1cccc(O)c1)c1ccc(O)c(C)c1O` has a log ratio of -2.93 (SK-OV-3; gene expression, microarray, measured: FAM198B; 10 µM, 24 h; relative to: DMSO).
For `CCOC(=O)C1=C(c2ccccc2)NC2=C(C(=O)CC(c3ccc(OC)c(OC)c3)C2)C1c1ccccc1Cl` (stereo not drawn), the EC50 was > 20 µM (J774.A1; cytotoxicity).
The maximum inhibition of `C=CC(=O)N1CCC[C@@H](c2ccc(C(N)=O)c3[nH]ccc23)C1` is reported as 24.8% (TMD8; calcium flux, FLIPR; 1 h preincubation, added: anti-IgM).
`O=C(/C=C/C=C/C=C/C1CCCCC1)NC1=C[C@@](O)(/C=C/C=C/C=C/C(=O)NC2=C(O)CCC2=O)[C@@H]2O[C@@H]2C1=O` has a GI50 of 26.1 µM (KYSE-410; cell growth, CellTiter-Glo; 78 h).
`Cn1cc(Nc2nccc(-c3ccc4c(c3)CN(C3COC3)CC[C@H]4NC(=O)c3cn(C(C)(C)C)nn3)n2)cn1` — result for “number of upregulated genes”: 266 (human B cells; 100 nM, 64 h, non-stimulation-regulated genes, added: CpG ODN2006).
The sarcomere length of `CC(C)NCC(O)c1ccc(O)c(O)c1` (stereo not drawn) is reported as 1.8 µm (mouse ventricular cardiomyocytes; dose not given, 0.263 s).
With `Cc1cc(Nc2ncc(Cl)c(Nc3ccccc3S(=O)(=O)C(C)C)n2)c(OC(C)C)cc1C1CCNCC1` the Emax was 81.2% (Aska-SS (ALK exon 2-17 deletion); cell viability).
`CCCCc1oc2ccc(NS(C)(=O)=O)cc2c1C(=O)c1ccc(OCCCN(CCCC)CCCC)cc1` gave a fold change of 3.6 fold (human embryonic stem cell aggregates; mRNA level, microarray, measured: LRP2; 0.5 µM, 120 h; relative to: untreated, up-regulated).
With `CCOC(=O)C1=C(C)NC2=C(C(=O)CC(c3ccc(OC)c(OC)c3)C2)C1c1ccccc1Cl` (mixture of isomers) the EC50 was > 20 µM (J774.A1; cytotoxicity).
With `Cc1nc(NC(=O)N2CCC[C@H]2C(N)=O)sc1-c1ccnc(C(C)(C)C(F)(F)F)c1` the IC50 was 3.08 µM (MKN-1; CellTiter-Glo; 120 h).
Under intracellular [3H]-paclitaxel, `C[C@@H]1CC[C@H]2[C@@H](/C1=C/C[C@H]1[C@]3(C)CCC(=O)C(C)(C)O[C@H]3CC[C@]1(C)O)C(C)(C)CC[C@]2(C)O` is recorded as “no effect” (KB-3-1; 10 µM).
`C=CC(=O)N1[C@@H](c2ccc3c(c2)OCO3)c2[nH]c3ccccc3c2C[C@H]1C(=O)NC` — result for “mean neuron degeneration”: 74.5% (rat DRG neurons; 0.1235 µM, 48 h, added: vincristine 40 nM).
`Nc1cccc2c1CN(C1CCC(=O)NC1=O)C2=O` (stereo not drawn) gave an EC50 of 10.6 µM (BRD4-HiBiT cells; BRD4 degradation rescue, inhibitor; 8 h, added: dBET6 500 nM).
`COc1ccccc1NC(=O)CSc1nnc(-c2ccc(F)cc2)n1C` has a Kd of > 100 µM (Cyclin-dependent kinase 2 (CDK2, Homo sapiens, UniProt P24941); binding).
With `Cc1nn(-c2nc3c(F)cc(F)cc3s2)c(O)c1C(c1ccccc1C(F)(F)F)c1c(C)nn(-c2nc3c(F)cc(F)cc3s2)c1O` the inhibition was 1.19% and -3.18% and -13.3% and -14.4% and -0.433% and -10.7% (THP1-Dual; IFN luciferase reporter; 1.25 µM, added: HT-DNA).
For `O=C(NN=Cc1ccc(Br)cc1)C1CC(=O)N(c2ccc(F)cc2F)C1` (stereo not drawn), cell migration read “inhibited” (PPC-1; wound healing; 10 µM, 12 h).
The phospho-TBK1/TBK1 ratio of `CCc1ccc(NC(=O)Nc2c[nH]c3ccccc23)cc1` is reported as 0.273 and 0.399 and 0.475 (THP1-Dual; TBK1 phosphorylation, inhibitor, Western blot densitometry; 20 µM, added: cGAMP).
The EC50 of `COc1cnc2cccc(N3CCc4c(cc(Cn5ccnc5C)cc4-c4cn(C)nc4C(F)(F)F)C3=O)c2c1` is reported as > 30 µM (MDA-MB-175-VII; cell growth, inhibitor; 120 h).
The fold change of `C=Cc1c2[n-]c(c1C)/C=c1\[n-]/c(c(C)c1C=C)=C\c1[n-]c(c(CCC(=O)O)c1C)/C=c1\[n-]c(c(C)c1CCC(=O)O)=C2.[Sn+4]` is reported as 1.98 (SH-SY5Y; RNA-seq, measured: THBS1 mRNA; 5 µM, 5 h; relative to: untreated cells).
Under “log2 fold change”, `Cn1cc(-c2ccc(-c3cncc(Cl)c3N3CCC4(CCNC4=O)CC3)cc2)cn1` is recorded as 4.08 (COLO 205; gene expression, microarray, measured: DEFB1 mRNA; concentration not given, 6 h; relative to: untreated cells).
For `CCOC(=O)C1=C(C)NC2=C(C(=O)OC(c3ccc(OC)cc3)C2)C1c1ccccc1Cl` (stereo not drawn), the EC50 was > 20 µM (J774.A1; cytotoxicity).
The inhibition of `Cc1nn(-c2nc3c(F)cc(F)cc3s2)c(O)c1C(c1cccc(C(F)(F)F)c1)c1c(C)nn(-c2nc3c(F)cc(F)cc3s2)c1O` is reported as -0.926% and -10.6% and -12.3% and -2.86% and -2.93% and -3.28% (THP1-Dual; IFN luciferase reporter; 2.5 µM, added: HT-DNA).
Under cell proliferation, `CC(=O)Nc1cc(Oc2ccc3c(c2)CCN3C(=O)Nc2ccc(CN3CCN(C)CC3)c(C(F)(F)F)c2)ncn1` is recorded as “inhibited” (MHHCALL4 B-ALL cells; CellTiter-Glo; concentration not given, 3 d).

For quick reference, copied from above:
`CC/C(=N\NC(=O)NCc1cccc(O)c1)c1ccc(O)c(C)c1O` has a log ratio of -2.93 (SK-OV-3; gene expression, microarray, measured: FAM198B; 10 µM, 24 h; relative to: DMSO).
Under cell proliferation, `CC(=O)Nc1cc(Oc2ccc3c(c2)CCN3C(=O)Nc2ccc(CN3CCN(C)CC3)c(C(F)(F)F)c2)ncn1` is recorded as “inhibited” (MHHCALL4 B-ALL cells; CellTiter-Glo; concentration not given, 3 d).
`O=C(/C=C/C=C/C=C/C1CCCCC1)NC1=C[C@@](O)(/C=C/C=C/C=C/C(=O)NC2=C(O)CCC2=O)[C@@H]2O[C@@H]2C1=O` has a GI50 of 26.1 µM (KYSE-410; cell growth, CellTiter-Glo; 78 h).
The Z score of `CCN(CC)C(=O)N1CCN(C)CC1` is reported as 1.7 (MDA-MB-231 BAX/BAK siRNA knockdown; cell viability, CellTiter-Glo; direction not given).
With `O=C(C[C@@H](C(F)F)n1ccc(F)n1)N1CCC(O)(Cn2cnc3c(cnn3-c3ccc(F)cc3)c2=O)CC1` the apoptotic cells was 10.7% (CHP-212 resistant; annexin V/PI flow cytometry; 0.3 µM, 48 h).
